Measurements pooled from the literature.
Compare with care: the assays were run in different laboratories. ± gives the spread as reported.

CCC(C(=O)Nc1ccc(C(N)=O)c(F)c1)n1cc(OC)c(-c2cc(Cl)ccc2-n2cc(C(F)(F)F)nn2)cc1=O (centres unmarked)
mild drug-related adverse events (healthy male humans; 50 mg, maximum intensity, added: antacid): 0%

C=C(NC(=O)c1csc(-c2nc3c(cc2O)-c2nc(cs2)C(=O)NC(C(C)O)C(=O)NC(=C(C)OC)c2nc(cs2)C(=O)NC2c4nc(cs4)C(=O)NC(COC(=O)c4c5c6c(cccc6n4O)COC(=O)C(OC4CC(C)(O)C(N(C)C)C(C)O4)C2OC5)c2nc-3cs2)n1)C(N)=O (centres unmarked)
half-life (ICR mice, Streptococcus pneumoniae ATCC 49169 infected, immunocompromised, blood; intravenous, 8 mg/kg/day three times daily): 2.22 h

C=CC(=O)Nc1cc(Nc2nccc(-c3c[nH]c4ccccc34)n2)c(OC)cc1N(C)CCN(C)C
recovery (storage stability; human plasma; 72 h, -80 °C, low QC level): 95.5%

Cc1cc(C)nc(NC(=S)N2CCN(Cc3ccc(C(F)(F)F)cc3)CC2)c1
Tmax (plasma; intraperitoneal, 30 mg/kg): 0.083 h

COCC1CN(C2CCN(c3cc(OC)c(Nc4ncc(Br)c(Nc5ccc6c(c5P(C)(C)=O)OCCO6)n4)cc3C)CC2)C1
Cmin (EGFR-mutant NSCLC patients, plasma; oral, 10 mg multiple doses, geometric mean): 15.4 ng/mL

CN([O-])C(=O)CN1CCNCCN(CC(=O)N(C)[O-])CC1.[89Zr+4]
tracer uptake (mouse, lung; intravenous, 24 h): 0.07 %ID/g

Nc1nc(-c2ccccc2)nc2[nH]nc(Nc3ccccc3)c12
recovery (plasma; time not given, plasma protein binding): 86.7%

OCCCN1CC[C@@H]2C[C@H]1c1cc(-c3ccc(C(F)(F)F)cc3)ccc12
Tmax (brain; ip, concentration not given): 2 h

O=C1CCC(N2Cc3cc(C(=O)O)c(F)cc3C2=O)C(=O)N1 (centres unmarked)
plasma concentration (cynomolgus monkey, male; oral, 0.3 mg/kg parent drug, 0.25 h): 0.63 ng/mL

C=C[C@]1(C)C[C@@H](OC(=O)CSc2ccc(NC(=O)c3ccco3)cc2)[C@]2(C)[C@H](C)CC[C@]3(CCC(=O)[C@H]32)[C@@H](C)[C@@H]1O
V2/F (chicken, Mycoplasmoides gallisepticum infected, plasma; intramuscular, 80 mg/kg): 2.24 L/kg

CC[C@H](C)[C@H](NC(=O)[C@H](CC(N)=O)NC(=O)[C@@H](N)CCSC)C(=O)N[C@@H](CCSC)C(=O)N[C@@H](CC(=O)O)C(=O)N[C@@H](Cc1ccccc1)C(=O)N[C@@H](CC(N)=O)C(=O)N[C@H](C(=O)N[C@@H](CCCCN)C(=O)N[C@@H](CCCCN)C(=O)N[C@@H](CC(C)C)C(=O)N[C@@H](C)C(=O)N[C@@H](C)C(=O)N[C@@H](CC(=O)O)C(=O)N[C@@H](C)C(=O)NCC(=O)N[C@H](C(=O)N[C@@H](Cc1c[nH]c2ccccc12)C(=O)N[C@@H](CC(C)C)C(=O)N[C@@H](CO)C(=O)N[C@@H](CCCNC(=N)N)C(=O)N[C@@H](C)C(=O)N[C@H](C(=O)N[C@@H](CCC(N)=O)C(=O)N[C@@H](Cc1ccccc1)C(=O)N[C@H](C(=O)N[C@@H](CCC(=O)O)C(=O)N[C@@H](CCC(=O)O)C(=O)N[C@@H](CCCCN)C(=O)N[C@@H](CC(C)C)C(=O)NCC(=O)N[C@@H](CCC(N)=O)C(=O)N[C@@H](C)C(N)=O)[C@@H](C)O)C(C)C)[C@@H](C)O)C(C)C
fractional helicity (circular dichroism; phosphate buffer; pH 7.4): 10.2%

O=C(Nc1cnccc1-c1ccc([18F])cc1)c1ccnc(NC(=O)C2CC2)c1
SUV (ex vivo gamma counting; GSK-3β transgenic mice, late-stage, small intestine; intravenous, 120 min, mean, P-gp inhibitor pretreatment, added: tariquidar 15 mg/kg iv): 4.54

COc1ccc2c(c1)CCn1c[n+]3c(c1-2)-c1ccc(OC)cc1CC3
haemoglobin (female NSG mice, blood; 6 mg/kg, day 7, 5 days per week): 13.6 ± 1 g/dL

CCN(CC)c1ccc2c(c1)O[B-]1(c3ccccc3C)OC(=O)C(c3ccccc3)=N[N+]1=C2 (centres unmarked)
molar absorption coefficient (toluene): 59000 M⁻¹ cm⁻¹

OC1(C(F)(F)F)CCN(c2nc(Nc3ccnc(C(F)(F)F)c3)nc(-c3cccc(C(F)(F)F)n3)n2)C1 (centres unmarked)
MRT(0-inf) (Sprague-Dawley rat, both sexes, plasma; oral gavage, 5 mg/kg, day 14): 25.7 ± 5.35 h

C/C(N)=N/C(=N\S(=O)(=O)c1ccc(C(F)(F)F)cc1)N1C[C@H](c2ccccc2)C(c2ccc(Cl)cc2)=N1
half-life (C57BL/6 mouse, brain; intravenous, 10 mg/kg): 6.5 h

CC[C@H](C)[C@@H]1NC(=O)[C@H](Cc2ccc(O)cc2)NC(=O)CCCSC[C@@H](C(=O)N(CC(=O)N[C@@H](CC(C)C)C(=O)NCC(N)=O)Cc2ccc(F)cc2)NC(=O)[C@H](CC(N)=O)NC(=O)[C@H](CCC(N)=O)NC1=O
AUC(0-t) (human, plasma; intranasal, 400 µg, single dose): 0.088 ng·h/mL

CCCCN1C(=O)c2cccc3c(NCCCCCCN4CCOCC4)ccc(c23)C1=O
molar extinction coefficient (ethyl acetate): 12300 M⁻¹ cm⁻¹

O=C1NC2(CC2)COc2ncc(F)cc2[C@H]2COCCN2c2ccn3ncc1c3n2
PCE/(PCE+NCE) ratio (bone marrow micronucleus test; NIH mice, male; oral, 200 mg/kg/day, 3 days): 0.278 ± 0.163

CC(C)[C@H](NC(=O)[C@H](Cc1c[nH]c2ccccc12)NC(=O)[C@H](CCCNC(=N)N)NC(=O)[C@H](CCCNC(=N)N)NC(=O)[C@@H](NC(=O)[C@@H](NC(=O)[C@H](CCCNC(=N)N)NC(=O)[C@@H](NC(=O)[C@@H](NC(=O)[C@H](CCCNC(=N)N)NC(=O)[C@H](CCCNC(=N)N)NC(=O)[C@@H](NC(=O)[C@H](Cc1c[nH]c2ccccc12)NC(=O)[C@H](CCCNC(=N)N)NC(=O)[C@H](CCCNC(=N)N)NC(=O)[C@@H](NC(=O)[C@H](CCCNC(=N)N)NC(=O)[C@H](CCCNC(=N)N)NC(=O)[C@@H](NC(=O)[C@H](Cc1c[nH]c2ccccc12)NC(=O)[C@H](CCCNC(=N)N)NC(=O)[C@@H](N)CCCNC(=N)N)C(C)C)C(C)C)C(C)C)C(C)C)C(C)C)C(C)C)C(C)C)C(=O)N[C@@H](CCCNC(=N)N)C(=O)N[C@@H](CCCNC(=N)N)C(=O)O
blood urea nitrogen (CD1 mouse, plasma; intravenous, 15 mg/kg, 16 h, [14C]-labelled compound): 15.3 mg/dL

[2H]C([2H])([18F])Oc1cc(C(=O)OCC2CCN(CCCC)CC2)ccc1N
plasma free fraction (rhesus monkey, NaF-inhibited plasma; baseline): 0.497 ± 0.03

CC(=O)N([O-])CCCCCNC(=O)CCC(=O)N([O-])CCCCCNC(=O)CCC(=O)N([O-])CCCCCN.[89Zr+4]
intact complex (radio-TLC; aqueous buffer; 1 d, pH 7.2, 37 °C, 89Zr-labelled complex, added: NiCl2 10-fold excess): 97.2 ± 1.4%

CCCCN1C(=O)c2cccc3c(NCCCCN4CCOCC4)ccc(c23)C1=O
molar extinction coefficient (DMF): 6700 M⁻¹ cm⁻¹

COc1cccc(OC)c1-c1cc(C(=O)NC2(C(=O)O)C3CC4CC(C3)CC2C4)nn1-c1ccc(C(=O)N(C)CCOCCN(C)C(=O)[C@H](CCCCNC(=O)[C@H](CC(C)C)NC(=O)C2OC2C(=O)O)NC(=O)CN2CCN(CC(=O)[O-])CCN(CC(=O)[O-])CCN(CC(=O)[O-])CC2)cc1C(C)C.[177Lu+3] (mixture of isomers)
tumour-to-brain ratio (mouse, HT-29 xenograft; 24 h post injection, biodistribution; relative to: tumour over brain uptake): 18

Cc1cc(-c2ccc(C(=O)[C@@H]3CCCC[C@H]3C(=O)Nc3cnn4c3C(=O)NCC4)cc2)[nH]n1
recovery of radioactivity per interval (human, faeces; oral, 200 mg, 264-288 h, discharged subjects excluded; relative to: dose): 0.31%

CCCCN1C(=O)c2cccc3c(NCCN4CCOCC4)ccc(c23)C1=O
molar extinction coefficient (CHCl3): 6730 M⁻¹ cm⁻¹

CCCC[C@H](OC(C)=O)c1ccccc1C(=O)O
Cmax (Sprague-Dawley rat, both sexes, whole blood; intravenous, 5 mg/kg, day 7): 16300 ± 2590 ng/mL

CCCCN1C(=O)c2cccc3c(NCCCCCN4CCOCC4)ccc(c23)C1=O
fluorescence lifetime (water; pH 6.0): 4.3 ns

Cc1ccc(OCC(=O)N(Cc2cccs2)c2ccn[nH]2)cc1
remaining compound (pooled rabbit liver microsomes; 10 µM, 20 min; relative to: time 0): 1.16%
